Assay results pooled from the literature.
Compare with care: the assays were run in different laboratories. ± gives the spread as reported.
UniProt Q3TKT4, sequence (whole entry, looked up): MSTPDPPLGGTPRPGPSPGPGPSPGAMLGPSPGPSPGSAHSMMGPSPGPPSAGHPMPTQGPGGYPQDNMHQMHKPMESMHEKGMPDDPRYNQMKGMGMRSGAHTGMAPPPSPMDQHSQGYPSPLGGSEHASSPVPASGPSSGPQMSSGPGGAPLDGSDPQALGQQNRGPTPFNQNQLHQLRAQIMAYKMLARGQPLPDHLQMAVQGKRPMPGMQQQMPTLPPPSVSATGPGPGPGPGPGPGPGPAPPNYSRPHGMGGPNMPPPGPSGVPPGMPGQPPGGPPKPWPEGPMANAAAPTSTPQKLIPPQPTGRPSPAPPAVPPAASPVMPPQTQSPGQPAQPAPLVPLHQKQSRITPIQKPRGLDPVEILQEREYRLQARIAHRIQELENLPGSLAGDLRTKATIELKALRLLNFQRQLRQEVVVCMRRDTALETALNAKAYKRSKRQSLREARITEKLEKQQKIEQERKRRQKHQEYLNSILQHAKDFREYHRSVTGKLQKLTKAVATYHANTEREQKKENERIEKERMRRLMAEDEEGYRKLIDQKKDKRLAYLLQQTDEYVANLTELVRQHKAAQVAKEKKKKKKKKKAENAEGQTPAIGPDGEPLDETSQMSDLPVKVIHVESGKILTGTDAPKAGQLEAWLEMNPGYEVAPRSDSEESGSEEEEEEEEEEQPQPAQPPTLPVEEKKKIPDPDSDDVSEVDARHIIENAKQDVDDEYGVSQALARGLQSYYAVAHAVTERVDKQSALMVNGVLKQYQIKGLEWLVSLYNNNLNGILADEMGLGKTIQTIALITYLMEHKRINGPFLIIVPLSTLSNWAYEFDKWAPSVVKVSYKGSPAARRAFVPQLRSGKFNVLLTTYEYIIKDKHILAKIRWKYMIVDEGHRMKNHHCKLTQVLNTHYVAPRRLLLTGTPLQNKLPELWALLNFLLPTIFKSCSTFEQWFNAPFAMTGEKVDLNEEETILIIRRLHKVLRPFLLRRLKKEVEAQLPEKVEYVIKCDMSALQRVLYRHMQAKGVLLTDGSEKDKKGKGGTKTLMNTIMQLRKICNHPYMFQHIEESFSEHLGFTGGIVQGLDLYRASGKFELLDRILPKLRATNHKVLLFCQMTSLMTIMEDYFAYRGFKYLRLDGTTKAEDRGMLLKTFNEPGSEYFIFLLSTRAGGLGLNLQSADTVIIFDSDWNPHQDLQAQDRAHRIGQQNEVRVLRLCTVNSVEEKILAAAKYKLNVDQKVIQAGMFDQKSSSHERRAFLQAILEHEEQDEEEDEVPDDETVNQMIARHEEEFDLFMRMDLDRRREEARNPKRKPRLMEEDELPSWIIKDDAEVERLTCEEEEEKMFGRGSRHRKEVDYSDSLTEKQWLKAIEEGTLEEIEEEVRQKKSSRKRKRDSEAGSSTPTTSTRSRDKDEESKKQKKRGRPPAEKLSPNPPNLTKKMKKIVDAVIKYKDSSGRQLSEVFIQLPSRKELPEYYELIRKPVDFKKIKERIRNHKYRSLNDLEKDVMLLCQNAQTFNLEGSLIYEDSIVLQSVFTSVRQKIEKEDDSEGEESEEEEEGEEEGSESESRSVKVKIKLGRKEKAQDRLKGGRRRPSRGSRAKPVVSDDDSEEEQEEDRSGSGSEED

Strand	target	test	test system	setting	quantity	result
AAGGGGGGCTATAAAAGGGGGTGGGGGCGCGTTCGTCCTCACTCTCTTCCCCTCCATACC (dsDNA)	TBP/GTF2B 1-339; 1-316 (Homo sapiens)	EMSA	double-stranded DNA, one strand shown	PreScission treated	binding	binds
AATCCGCAGTCACAGTGACTCAGCAGAATCTGAGCCTAG (dsDNA)	NRF2/MAFG (Homo sapiens)	competition EMSA	double-stranded DNA, one strand shown	500 nM	binding	binds
TCTTTTTTTTTTTTTTTCTTTTTTCCTCC (dsDNA)	Smarca4 AT-hook (Mus musculus, UniProt Q3TKT4)	EMSA	double-stranded DNA, one strand shown	together with: Mg2+ 5 mM	Kd	1800 nM
TCAGTGACCCATCTTGCTGAGCTCTGCTAAACCTGTTGA (dsDNA)	NRF2/MAFG (Homo sapiens)	competition EMSA	double-stranded DNA, one strand shown	500 nM	binding	no binding
CGATCATGGAGCCACGAGCTCCCGTTACAG / CTGTAACGGGAGCTAGTGGCTCCATGATCG (dsDNA; blunt, 8-oxoG:2'-fluoro-arabino-A pair)	MUTYH 1-535 S524D (Homo sapiens)	EMSA	–	–	Kd	1.8 ± 0.1 nM

Excerpt of the above:
Strand	target	test	test system	setting	quantity	result
CGATCATGGAGCCACGAGCTCCCGTTACAG / CTGTAACGGGAGCTAGTGGCTCCATGATCG (dsDNA; blunt, 8-oxoG:2'-fluoro-arabino-A pair)	MUTYH 1-535 S524D (Homo sapiens)	EMSA	–	–	Kd	1.8 ± 0.1 nM
